Published values pooled from the literature.
Parts stem from different laboratories: compare values within a part only. Substitutions count along the parent as printed.

Block 1
Target: CEBPA, bZIP domain (human)
Technique: DHFR protein complementation
Medium: yeast
Notes: single substitutions, most at no-binding floor
Baseline: wild-type JUN-FOS pair
Direction: higher = stronger binding
Measurement: binding fitness
Starting sequence: JUN, bZIP domain (human); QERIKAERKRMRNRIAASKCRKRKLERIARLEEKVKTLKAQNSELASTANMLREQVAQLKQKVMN; partner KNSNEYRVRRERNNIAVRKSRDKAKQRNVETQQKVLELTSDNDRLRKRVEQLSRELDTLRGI
I28S: -1.47 natural log
L38H: -1.58 natural log
K39S: -1.4 natural log
A57Y: -1.4 natural log
Q41P: -1.53 natural log
N42W: -1.51 natural log
R30T: -1.23 natural log
R53M: -1.43 natural log
T37L: -1.34 natural log
K34P: -1.51 natural log
L38G: -1.5 natural log
A49E: -1.42 natural log
K34H: -1.54 natural log
L52Y: -1.42 natural log
A46G: -1.45 natural log
E44G: -1.51 natural log

Block 2
Target: RNA binding protein fox-1 homolog 2, RRM domain, GST-SBP tag (RBFOX2, Homo sapiens, UniProt O43251-10, residues 100-194)
Technique: RNA Bind-n-Seq
Form: RNA
Medium: in vitro
Tested at: 365 nM
Notes: natural RNA segment, single round, ends assumed
Baseline: no-protein control
Direction: higher = stronger binding
Measurement: RBNS enrichment (R)
All sequences stand within: GGGAGUUCUACAGUCCGACGAUC … UGGAAUUCUCGGGUGCCAA
Construct (chain): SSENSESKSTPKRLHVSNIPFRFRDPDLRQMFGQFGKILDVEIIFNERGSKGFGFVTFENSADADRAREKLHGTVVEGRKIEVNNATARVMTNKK
UACCUGGGGUGUGUAGACAGACAGACUGAGAGCUAUCAGCAUUUGAAGGCCCAGCCCUUGACUCUGAGACACAUUUGAAUUUUUUCUUUCCCAUCAAAUGGCAUUAACAA: 4
AAGGAGGGUAGAAUAAGCAUUUAUUCCCCUGCCUUCCAAAUUGAAGAGGAGGACUUGGCCUCAAGCCUGAAGAACAAAAGUCUCAGAAAGCAAAGAACAGCAUCACCUUG: 0.769
GUUAAAUUGGGGUAUGUGGUUUGAUUGAUAAAAAGUUACCUCUCAGUAUUUUGUGUCACUGAGAAGCUUUACAAUGGAUGCUUUUGAAACAAGUAUCAGCAAAAGGAUUU: 1.21
UAUCUUUAAACACAAAAAACCCUGAAAUGUAUAUUUGGAUCGUUUUAAGGCAAUUGAAGACACGCAACCUCAGGUAUCCCGCUUUAUAUCGAUAGCUCCUCCCCCGGGAG: 0.434
CAUUCCUCCACUUUCAUAAAUUUGACAAAUAAUAAGCCUCUCCCAUUAGGAUUUUCUGUUUUAUAGUAAAUAGUUGGUAUUUGGUAGUCCACAAUUAAAGUCAUUGCAUU: 0.716
GGGCUGGGCAUAUGUCGGCCUCUUGUGCCAAGGCCAGGCAAGCAGCUCCAGGUCCUGACCAGUUUGCACACACACUCUGGAGCUGUAUCUGGCGCUUUUUCUAUCGUCUC: 1.29
GUGAUAACACAAAUUUUAUCGCAAUGGUUAUUAUUUAAUUUGUGGCCACACACUGUGGUUAUCUUUUGUUGUGGUUGUUUCUGAGAAAAUGUUCUUGGAUAUGUAAGUGC: 0.648
GGGAACAACUGAGCAUCAAAACCGGCUUUGCUUUACUUCCUGGCAGGCUGCAGCCAAGGGGACUGAGCAGCAGGCACCCAAUGCCACCAGCUCGUCUCUUCCUAGCAAGC: 0.599
GUUUUAAGGUGGAAAAUUUUCUUACAGUUGAUGCAAAGUAUCAACUACUUUACCCUACCUUCUCCCCUUUUAGAUGGGUUCUUCCUGAGUUUUGGAGUCUUGUAUGAUUA: 0.437
UUUUUUAACCACCUCUGAUUUCCAACUUAGUGAUGUGGUAAUGAAAUUCGUUUGUCUUCAAUAUAGUUUGAAGAUUAGUCAUUCCAUGAAGGAACAGCCUCUUGAGCUGG: 0.309
AUUGCCAAGAGGUGCUUGUUUUAAAAGUAUGUUUAAUAAAAUGAAAUUCUAAAGUUAGAAGUGUUCUUAAGUUGAUAUUUACUCUCUUGGUCUUGGUAGCCCUAUUAUAU: 0.816
AUCCAUUAUCUUGGCUGUGAGCUCCUUGGGUACGGGUACCUUGUAUGUUUACUUUUAUAUCCCUAGCACAAAGCAAGUGCCUGGCACAUAGUCAGUGCCCUAAGUAUUCG: 0.478

Block 3
Target: RING finger protein unkempt homolog, zinc fingers 1-6, GST-SBP tag (UNK, Homo sapiens, UniProt Q9C0B0, residues 30-357)
Chain of UniProt Q9C0B0 (30-357, looked up): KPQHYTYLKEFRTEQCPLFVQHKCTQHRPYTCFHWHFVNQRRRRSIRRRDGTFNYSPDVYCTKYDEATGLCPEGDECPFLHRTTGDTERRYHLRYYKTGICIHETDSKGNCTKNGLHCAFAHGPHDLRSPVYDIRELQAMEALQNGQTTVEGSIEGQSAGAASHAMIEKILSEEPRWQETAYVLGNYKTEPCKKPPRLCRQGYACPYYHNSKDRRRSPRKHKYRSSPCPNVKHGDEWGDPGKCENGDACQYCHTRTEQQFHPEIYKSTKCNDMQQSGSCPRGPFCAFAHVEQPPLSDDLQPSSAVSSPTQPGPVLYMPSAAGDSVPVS
Technique: RNA Bind-n-Seq
Form: RNA
Medium: in vitro
Tested at: not given
Notes: RNA with constant flanks, human and mouse sites, ends assumed
Baseline: input RNA pool
Direction: higher = stronger binding
Measurement: bound/input enrichment
All sequences stand within: GGGAGUUCUACAGUCCGACGAUC … CAACAGAGGAUUGAGCAUCA
UCACAGCUAGGGAGAAAGAAGUGAUACCGGAAAAGAAAACCUAAAUGAAGAGAAUGAGGAUGACUGCACAGUAGAUGGCCACCUCUACCUCCACAGAGGCAAAGUCAGCCUCGUGGUGGA: 0.658 ratio
GAUCAAGCCAGAUCAGCAUUCUCUAACUUGUUUGGUGGGGAACCAUUGUCAUACACCCGGUUUAGCCUUGCUCGGCAAGUAGAUGGAGAUAACAGUCAUGUGGAGAUGAAACUGGCUGCA: 0.979 ratio
CAAGUGCUGGCAGCUUUGCAGGAACGUCUUGACAACGUCUCUCACACUCCUUCUAGUUACAUAGAAACUUUACCUAAAGCUGUCAAAAGAAGAAUUAAUGCCCUGAAGCAGCUCCAGGUG: 1.18 ratio
AUCUAAACUUAGAUGGAGUUGGUCAAAUGAGGGAACAUCUGGGUUAUGCCUUUUUUAAAGUAGUUUUCUUUAGGAACUGUCAGCAUGUUGUUGUUGAAGUGUGGAGUUGUAACUCUGCGU: 0.387 ratio
AUAUUGGAGAAUUGGGAGAAGUCUCUUUGGUUUGGAAAAAAAAAAAAGGAAUCUUCAGCCUAGAUCACUUUCUUAUCCGGACUGGGAUAUUAAAUAUACGACACAUCCAGGAGUUUAUUG: 0.392 ratio
AAGCUAUAUAUAGUGAGUUUUUCUAAAUUAAGGGAACUCUGCUUUUUUUUUUUUUUUUUAAGUAACUGGUCUGUAAGUGCAUAUCUCUAGAACGUCCCCGCAGAUGAAUGAGGGCCAGUG: 6.27 ratio
CUGAAGGCAUUGGAGAGACUCGAGGGUGUGGAAGGUGUGGCCCAUAUCAUCGACCCCAAGGCCAUCAGCAAAGACCACCUCUACGGAACCCUGGACCCCAACACCAGGGAAUGGACAGAU: 0.294 ratio
AUCUUAUUACAGGGACUUGCUGUGCUUGCCAAGGAAAGACCACCAAAUCCCAUCGAGUUCCUAGCAUCUUAUCUUUUAAAAAACAAGGCGCAGUUUGAAGAUCGAAAUUGAUUUCUUGGG: 0.342 ratio
UAAGAAGAAAAACAAGUUAUAGCACUUUCAAUUUUUUUUUUUUUUUUAAAAAAAGGUUUAUAGCUUUUUCUUUUCCCAUGUCACAAUGUCCACUUCCUAAGAAGGGUUUAAAAUACUAUG: 0.467 ratio
AAUGUUACUUCUAUGAUAAACUUAAAGACCAUUGCUUCAUCAGCAGAUCCUAAAAAUGUUAGUAUACCAUCUUCUGAAGCUUUAUCUUCGGAUCCUUCCUACAACAAAGAAAAACACAUU: 0.635 ratio
AAUGGCAGUCAGUCAGAAAGUUCAGUGUCUACUCCAUCUGCGUCAUUUGAACCUAACAACACUUGUGAAAACUCUCAGUCCAGAAAUGCAGAGCUUUGUGAGAUACCACCCACUUCUGAU: 0.146 ratio

Block 4
Target: UBE2C UBC core domain (UniProt O00762)
Technique: yeast two-hybrid
Medium: yeast
Notes: mostly zero background
Baseline: not given
Direction: higher = stronger interaction
Measurement: lacZ reporter activity
B1: TRIM11 RING domain (UniProt Q96F44); chain LSTNLQEEATCAICLDYFTDPVMTDCGHNFCRECIRRCWGQPEGPYACPECRELSPQRNLRP
B2: ARIH2 RING domain (UniProt O95376); chain HVPTSHPPHHCAVCMQFVRKENLLSLACQHQFCRSCWEQHCSVLVKDGVGVGVSCMAQDCPLRTPEDFVF
B3: RNF186 RING domain (UniProt Q9NXI6); chain HSGSTECDLECLVCREPYSCPRLPKLLACQHAFCAICLKLLLCVQDNTWSITCPLCRKVTAVPGGLI
B4: TRIM41 RING domain (UniProt Q8WV44); chain PVQTLQEEAVCAICLDYFTDPVSIGCGHNFCRVCVTQLWGGEDEEDRDELDREEEEEDGEEE
B5: MARCHF1 RING domain (UniProt Q8TCQ1); chain TAPRSQSRLSVCPSTQDICRICHCEGDEESPLITPCRCTGTLRFVHQSCLHQWIKSSDTRCCELCKYDFIMETKLKPLRKWE
B6: RNF103 RING domain (UniProt O00237); chain WPADMLHCTECVVCLENFENGCLLMGLPCGHVFHQNCIVMWLAGGRHCCPVCRWPSYKKKQPY
Residues (chain): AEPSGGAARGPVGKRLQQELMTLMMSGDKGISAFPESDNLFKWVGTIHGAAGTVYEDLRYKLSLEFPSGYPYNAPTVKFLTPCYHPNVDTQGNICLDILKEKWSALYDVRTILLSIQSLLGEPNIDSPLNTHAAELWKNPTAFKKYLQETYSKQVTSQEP
B1 (TRIM11 RING domain): 0
B2 (ARIH2 RING domain): 0
LEALSSDFLACKICLEQLRAPKTLPCLHTYCQDCLAQLADGGRVRCPECRETVPVPPEGV (TRIM56 RING domain (UniProt Q9BRZ2)): 0
FAEQPSVKLCCQLCCSVFKDPVITTCGHTFCRRCALKSEKCPVDNVKLTVVVNNI (TRAF7 RING domain (UniProt Q6Q0C0)): 0
B3 (RNF186 RING domain): 0
LVKDFNPYITCYICKGYLIKPTTVTECLHTFCKTCIVQHFEDSNDCPRCGNQVHETNPLE (PCGF5 RING domain (UniProt Q86SE9)): 0
FDPPLESKYECPICLMALREAVQTPCGHRFCKACIIKSIRDAGHKCPVDNEILLENQLFP (TRAF6 RING domain (UniProt Q9Y4K3)): 0
B4 (TRIM41 RING domain): 0
B5 (MARCHF1 RING domain): 0
B6 (RNF103 RING domain): 0

Block 5
Target: CCNF, cyclin fold, Cln2 fusion (human)
Technique: yeast growth competition, sequencing
Medium: yeast
Notes: strong parent motif
Baseline: not given
Direction: higher = stronger binding
Measurement: normalised enrichment score
Starting sequence: ORC1 docking peptide (human); PRARKRLELGNLG
PRARVRLELGNLG [K5V]: 0.793
PRARKRLELGVLG [N11V]: 4.29
PRARKRLRLGNLG [E8R]: 1.42
PRARKREELGNLG [L7E]: 0.979
RRARKRLELGNLG [P1R]: 3.01
PRARKRLELGNLL [G13L]: 3.54
ERARKRLELGNLG [P1E]: 3.58
PRARKRLELGNCG [L12C]: 3.69
PRARKKLELGNLG [R6K]: 3.26
PRARKRLEKGNLG [L9K]: 1.25
PRARKRKELGNLG [L7K]: 1.92
PRAWKRLELGNLG [R4W]: 1.17
PPARKRLELGNLG [R2P]: 4.38
PRARCRLELGNLG [K5C]: 1.31
PRARKRLELGYLG [N11Y]: 5.2
PRARKRLELGNLC [G13C]: 3.39
PRARKRSELGNLG [L7S]: 1.85
PRARKTLELGNLG [R6T]: 0.773
PQARKRLELGNLG [R2Q]: 3.07
YRARKRLELGNLG [P1Y]: 4.08
PRARHRLELGNLG [K5H]: 1.12

Repeated from above (block 1):
I28S: -1.47 natural log
L38H: -1.58 natural log
K39S: -1.4 natural log
A57Y: -1.4 natural log
Q41P: -1.53 natural log
N42W: -1.51 natural log
R30T: -1.23 natural log
R53M: -1.43 natural log
T37L: -1.34 natural log
K34P: -1.51 natural log
L38G: -1.5 natural log
